Results from different studies.
± marks the error that the study gave. ≈ marks a conversion by molar mass, not a printed value.
Sequence of UniProt P42575 (whole entry, looked up): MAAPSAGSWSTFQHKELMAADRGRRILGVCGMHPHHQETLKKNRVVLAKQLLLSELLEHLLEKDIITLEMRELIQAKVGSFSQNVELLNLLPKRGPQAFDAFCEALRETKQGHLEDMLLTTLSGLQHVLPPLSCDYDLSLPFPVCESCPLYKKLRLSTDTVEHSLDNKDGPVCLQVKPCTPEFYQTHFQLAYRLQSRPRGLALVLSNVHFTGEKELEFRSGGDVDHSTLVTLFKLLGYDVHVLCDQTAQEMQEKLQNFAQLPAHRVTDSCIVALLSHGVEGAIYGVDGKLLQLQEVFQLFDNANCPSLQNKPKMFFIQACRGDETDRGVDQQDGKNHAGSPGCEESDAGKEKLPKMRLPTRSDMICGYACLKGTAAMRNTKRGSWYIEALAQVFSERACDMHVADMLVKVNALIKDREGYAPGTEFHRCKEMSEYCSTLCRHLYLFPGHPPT

CCc1noc(CC)c1C(=O)O[C@H]1C(C)=C[C@]23C(=O)[C@@H](C=C(CO)[C@@H](O)[C@]12O)[C@H]1[C@@H](C[C@H]3C)C1(C)C  5-isomer level (phosphate buffer; concentration not given, up to 24 h, pH 7.4, 37 °C): < 3%
CSCCN(CCSC)CCc1ccccn1  logK(H1) (potentiometric or spectrophotometric titration; water, 0.1 M KCl; 25 °C): 7.24
O=C([O-])CN1CCN(CC(=O)[O-])CCN(CC(=O)NCCc2ccc3c(c2)C2C=CCC2C(c2cc4c(cc2Br)OCO4)N3)CCN(CC(=O)[O-])CC1.[111In+3] (stereo not drawn)  tissue uptake (mouse, Hec50 endometrial tumour, adrenals; 2 h post injection): 1.33 ± 0.08 %ID/g
CCCC(CCC)NC(=O)c1ccc(O)c(O)c1  metabolite peak area (LC-MS; human liver microsomes; 10 µM of parent drug, 10 min, pH 7.4, with: NADPH; reference: parent drug at time zero): 3.1%
Oc1ccc2ccccc2c1/N=N/c1ccc(/N=N/c2ccccc2)cc1  measured concentration (rat whole blood QC samples; 5.0 µg/L, 8 h, room temperature, short-term stability): 5.33 µg/L
CCC(=O)N[C@@H](C)C(=O)OCC(=O)N[C@@H](C)C(=O)O  depolymerization half-life (water; pH 5, 25 °C): 1030 h
O=C([O-])CN1CCN(CC(=O)[O-])CCN(CC(=O)[O-])CCN(CC(=O)[O-])CC1.[Fe+3]  second-order rate constant (metal exchange with Zn2+, UV/Vis; 100 µM metal chelate, pH 7.4, 37 °C, with: 100 µM ZnCl2): 0.0517 ± 0.00167 M⁻¹ s⁻¹
CC(C)[C@H](NC(=O)CNC(=O)[C@H](CCC(N)=O)NC(=O)[C@H](C)N)C(=O)O  Cmax (LC-MS/MS; human, male, plasma; intravenous, 20 mg/kg three times daily, day 2, first dose, 10 min infusion, geometric mean): 3500 ng/mL
CCCC[C@H](NC(C)=O)C(=O)N[C@H]1CC(=O)NCCCC[C@@H](C(=O)N[C@@H](C(=O)N2CCC[C@@H]2C(N)=O)C(C)C)NC(=O)[C@H](Cc2c[nH]c3ccccc23)NC(=O)[C@H](CCCN=C(N)N)NC(=O)[C@@H](Cc2ccc3ccccc3c2)NC(=O)[C@@H]2CCCN2C1=O  Tmax (Beagle dog, both sexes, plasma; subcutaneous, once daily, 2.25 mg/kg, day 5): 1.6 ± 0.3 h
COc1cc(CNC(=O)C[C@H](C)CCC=C(C)C)ccc1O  growth percent (MDA-MB-435 melanoma cells; SRB; 10 µM, 48 h): 102%
CC(=O)[CH](C(C)=O)[Pt-2]1([S+](C)C)[O]C(C)=CC(C)=[O+]1 (stereo not drawn)  creatinine (rat, blood; intravenous, 5 mg/kg, single dose): 0.4 ± 0.02 mg/dL
C#CCOc1ccc(/C=C2\SC(=O)N(CC(=O)NCc3ccccc3)C2=O)cc1  Kirkwood-Buff integral G1,3 (inverse Kirkwood-Buff integrals; binary solvent mixture; 298.15 K, mole fraction x1 0.90): -258 cm³/mol
CC12CC(c3ccc(S(C)(=O)=O)cc3)C3=C4CCC(=O)C=C4CCC3C1CCC2(O)C(F)(F)C(F)(F)F (stereo not drawn)  AUC0–3d (human, plasma; oral, 4 mg, geometric mean, with: itraconazole 200 mg/day): 740 ng·h/mL
CCCC[C@H](NC(=O)CNC(=O)CNC(=O)CN1CCN(CC(=O)O)CCN(CC(=O)O)CCN(CC(=O)O)CC1)C(=O)N[C@H]1CC(=O)NCCCC[C@@H](C(N)=O)NC(=O)[C@H](Cc2c[nH]c3ccccc23)NC(=O)[C@H](CCCNC(=N)N)NC(=O)[C@@H](Cc2ccccc2)NC(=O)[C@H](Cc2c[nH]cn2)NC1=O [copper-64 labelled]  uptake ratio (female C57 mouse, B16/F1 melanoma; intravenous, 0.037 MBq, 2 h; reference: tumour over lung): 1.32
CCCC[C@H](NC(=O)CNC(=O)CNC(=O)CN1CCN(CC(=O)O)CCN(CC(=O)O)CCN(CC(=O)O)CC1)C(=O)N[C@H]1CC(=O)NCCCC[C@@H](C(N)=O)NC(=O)[C@H](Cc2c[nH]c3ccccc23)NC(=O)[C@H](CCCNC(=N)N)NC(=O)[C@@H](Cc2ccccc2)NC(=O)[C@H](Cc2c[nH]cn2)NC1=O [gallium-67 labelled]  urinary excretion (C57 mice, female, B16/F1 melanoma, urine; intravenous, 0.037 MBq, 0.5 h): 59.4 ± 5.31%
CC(=O)N[C@@H](CC(=O)O)C(=O)N[C@@H](CCCNC(=N)N)C(=O)N[C@H](C(=O)N[C@H](C=O)CC(=O)O)[C@@H](C)O  Ki (Caspase-2 (Homo sapiens, UniProt P42575); enzyme activity, inhibitor, fluorescence; pH 6.5): 1.58 µM
Cc1[nH]nc2c1N=C(c1ccccc1Cl)c1cnc(N(CCO)CCO)cc1N2  metabolite to parent ratio (human male, plasma; oral, 10 mg, 0-120 h; reference: metabolite AUC over parent AUC): 0.07%
COc1ccc2cc(-c3ccc(-c4ccc(C)cn4)nc3)oc2c1  fluorescence quantum yield (benzene; with: quinine bisulfate reference): 0.75
CSCOC1C(=O)C2(C)C(OCSC)CC3OCC3(OC(C)=O)C2C(OC(=O)c2ccccc2)C2(O)CC(OC(=O)C(O)C(C=C(C)C)NC(=O)OC(C)(C)C)C(C)=C1C2(C)C (stereo not drawn)  Vd (male Sprague-Dawley rat, plasma; intravenous, 2 mg/kg): 89.1 L/kg
O=C(O)[C@@H]1C[C@@H](O)CN1C(=O)[C@@H]1CCCN1  log beta (potentiometric titration; 25 °C, MA complex, with: Fe(III)): 14.5
CCCC[C@H](NC(=O)[C@H](C)NC(=O)[C@H](CO)NC(=O)[C@H](CC(C)C)NC(=O)[C@H](CCCCN)NC(=O)[C@]1(C)CCCC=CCCCCCC[C@@](C)(NC(=O)[C@H](CCC(=O)O)NC(=O)[C@H](CC(C)C)NC(=O)[C@H](CO)NC(=O)[C@H](CCC(N)=O)NC(=O)[C@@H](NC(=O)[C@H](CCCC)NC(=O)[C@H](CCC(=O)O)NC(=O)[C@H](CCCNC(=N)N)NC(=O)[C@H](CCC(N)=O)NC(=O)[C@H](CC(C)C)NC(=O)[C@H](CC(C)C)NC(=O)[C@H](CS)NC(=O)[C@H](CCC(N)=O)NC(=O)[C@H](C)NC(=O)[C@H](CCCNC(=N)N)NC(C)=O)C(C)C)C(=O)N[C@@H](CCC(N)=O)C(=O)N[C@@H](CC(C)C)C(=O)N[C@@H](C(C)C)C(=O)N[C@@H](CC(C)C)C(=O)N[C@@H](CCC(=O)O)C(=O)N[C@@H](CCCCN)C(=O)N1)C(=O)N[C@@H](CCC(N)=O)C(=O)N[C@@H](C)C(=O)N[C@@H](Cc1c[nH]cn1)C(N)=O  alpha-helicity (circular dichroism; sodium acetate buffer; 2.5 to 10 µM, pH 3.6, 20 °C): 67%
Cc1ccc(OCC(=O)O)cc1  Cmax (Sprague-Dawley rat, female, plasma; oral gavage, 100 mg/kg of parent drug): 12300 ± 5360 ng/mL
CCCC[C@H](NC(=O)CNC(=O)CNC(=O)CN1CCN(CC(=O)O)CCN(CC(=O)O)CCN(CC(=O)O)CC1)C(=O)N[C@H]1CC(=O)NCCCC[C@@H](C(N)=O)NC(=O)[C@H](Cc2c[nH]c3ccccc23)NC(=O)[C@H](CCCNC(=N)N)NC(=O)[C@@H](Cc2ccccc2)NC(=O)[C@H](Cc2c[nH]cn2)NC1=O [lead-203 labelled]  tissue uptake (C57 mouse, lung; intravenous, 0.056 MBq, 2 h): 0.42 ± 0.16 %ID/g
COC(=O)/C=C/C(=O)c1ccc(OC)cc1  recovery (LC-MS/MS; rat plasma; 400 ng/mL, time not given, 3 freeze-thaw cycles): 93.3 ± 8.9%
O=S(=O)(c1ccccc1)N1CCCCC1  recovery (phosphate-buffered saline; 24 h, pH 6.5): 100%
NS(=O)(=O)c1ccc(-n2nc(C(F)(F)F)c(O)c2-c2ccc(F)cc2F)cc1  metabolite formation rate (substrate; human liver microsomes; 20 µM, 0 to 30 min, pH 7.4): 14 pmol/min/mg
N[C@@H](COc1ccccc1C(F)(F)F)c1ccccc1  Vd (rat, plasma; intravenous, 5 mg/kg): 30.3 L/kg
C=C(c1ccc(C(=O)O)c(F)c1)c1cc2c(cc1C)C(C)(C)C=CC2(C)C  blood cholesterol (Sprague-Dawley rat, male; oral, 100 mg/kg, 1 h, sesame oil vehicle): 124 ± 6.7 mg/dL
CC(C)C[C@@H](NC(=O)[C@H](NC(=O)[C@H]1CCCN1)[C@H](C)O)C(=O)N[C@H](Cc1c[nH]cn1)C(=O)N[C@@H](C(=O)N[C@H](Cc1c[nH]cn1)C(=O)N[C@H](CC(N)=O)C(=O)N[C@H](CCCNC(=N)N)C(=O)N[C@H](CCCNC(=N)N)C(=O)N[C@H](CCCNC(=N)N)C(=O)N[C@H](CCCNC(=N)N)C(=O)N[C@H](CCCNC(=N)N)C(N)=O)[C@H](C)O  tmax (Beagle dog, CSF; oral, 20 mg/kg): 8 ± 8 h
COc1cc(CNC(=O)C[C@H](C)CCC=C(C)C)ccc1OCc1cn(-c2cccc([N+](=O)[O-])c2)nn1  growth percent (Hs-578T breast cancer cells; SRB; 10 µM, 48 h): 68.2%
Cc1nc(-c2ccc(NC(=O)c3cccs3)cc2Cl)no1  thermodynamic solubility (PBS; 24 h, pH 7.4, room temperature): 56.6 ± 9.5 µg/mL (≈ 177 µM)
CC(C)C[C@H](NC(=O)[C@H](CO)NC(=O)[C@H](CCCNC(=N)N)NC(=O)[C@H](CC(=O)O)NC(=O)[C@H](CCC(=O)O)NC(=O)[C@H](C)NC(=O)[C@@H]1CCCN1C(=O)[C@H](C)NC(=O)[C@H](CCC(=O)O)NC(=O)[C@@H]1CCCN1C(=O)[C@@H]1CCCN1)C(N)=O  DOPAC level reduction (dopamine system; rhesus monkey, contralateral putamen; intranasal, dose not given, repeated dose escalation; reference: vehicle): 59%
[11CH3]c1ccc2nc(C3CCC3)n(-c3ccc4[nH]ncc4c3)c2n1  absorbed dose (extrapolated from mouse; human female, Upper large intestine wall): 6.3 µSv/MBq
O=C([O-])CN1CCN(CC(=O)[O-])CCN(CC(=O)NC[C@H]2CC[C@H](C(=O)N[C@H](Cc3cnc4ccccc4c3)C(=O)NCCCC[C@H](NC(=O)N[C@@H](CCC(=O)O)C(=O)O)C(=O)O)CC2)CCN(CC(=O)[O-])CC1.[64Cu+2]  absorbed dose (PET/CT, OLINDA/EXM dosimetry; healthy human volunteers, rectum): 0.0161 mGy/MBq
O=C([O-])CN1CCN(CC(=O)[O-])CCN(CC(=O)NCC2CCC(C(=O)NC(Cc3ccc4ccccc4c3)C(=O)NCCCCC(NC(=O)NC(CCC(=O)O)C(=O)O)C(=O)O)CC2)CCN(CC(=O)[O-])CC1.[44Sc+3] (stereo not drawn)  absorbed dose (PET/CT, OLINDA/EXM; human patients, spleen; mean of patients): 0.177 mSv/MBq
CC(C)(Sc1cc[n+]([O-])cc1-c1ccc(C#N)c2ccccc12)C(=O)OC1OC(C(=O)O)C(O)C(O)C1O (stereo not drawn)  fraction excreted unchanged (urine; oral, 15 mg, 72 h, mild renal impairment; reference: dose): 18.8%

A few entries again:
Cc1[nH]nc2c1N=C(c1ccccc1Cl)c1cnc(N(CCO)CCO)cc1N2  metabolite to parent ratio (human male, plasma; oral, 10 mg, 0-120 h; reference: metabolite AUC over parent AUC): 0.07%
O=S(=O)(c1ccccc1)N1CCCCC1  recovery (phosphate-buffered saline; 24 h, pH 6.5): 100%
COc1ccc2cc(-c3ccc(-c4ccc(C)cn4)nc3)oc2c1  fluorescence quantum yield (benzene; with: quinine bisulfate reference): 0.75
CSCOC1C(=O)C2(C)C(OCSC)CC3OCC3(OC(C)=O)C2C(OC(=O)c2ccccc2)C2(O)CC(OC(=O)C(O)C(C=C(C)C)NC(=O)OC(C)(C)C)C(C)=C1C2(C)C (stereo not drawn)  Vd (male Sprague-Dawley rat, plasma; intravenous, 2 mg/kg): 89.1 L/kg
